Published values gathered from unrelated publications.
A part holds a random share of what one study measured.
Chain of UniProt P08588 (whole entry, looked up): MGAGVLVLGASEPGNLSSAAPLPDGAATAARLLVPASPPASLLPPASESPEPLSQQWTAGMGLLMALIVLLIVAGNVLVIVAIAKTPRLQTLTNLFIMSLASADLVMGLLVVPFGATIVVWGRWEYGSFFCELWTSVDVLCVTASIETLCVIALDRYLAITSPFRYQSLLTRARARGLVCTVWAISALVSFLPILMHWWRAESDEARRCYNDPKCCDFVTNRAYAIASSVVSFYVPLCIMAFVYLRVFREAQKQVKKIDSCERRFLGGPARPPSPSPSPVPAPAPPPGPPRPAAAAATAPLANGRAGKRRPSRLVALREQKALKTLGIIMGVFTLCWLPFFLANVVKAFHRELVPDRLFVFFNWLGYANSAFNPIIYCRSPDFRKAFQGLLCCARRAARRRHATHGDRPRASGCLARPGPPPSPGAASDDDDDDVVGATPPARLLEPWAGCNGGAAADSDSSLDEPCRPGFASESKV

Sample 1
Target: Prothrombin, mature alpha-thrombin (F2, Homo sapiens, UniProt P00734)
Method: aptamer microarray, sandwich
Form: DNA with 2'F-ANA
Medium: in vitro
Concentration: 200 nM
Notes: whole 15-mer aptamer, many near background
Added: Cy3 exosite-II aptamer, 400 nM
Direction: higher = stronger binding
Quantity: mean fluorescence intensity
Oligonucleotide: GGTTGGTGTGGTTGG
Modification = 2'F-ANA at 4 6 8 13; result = 204 a.u.
Modification = 2'F-ANA at 2 4 6 7 8 10 11 13 14 15; result = 57.1 a.u.
Modification = 2'F-ANA at 2 6 7 8 9; result = 365 a.u.
Modification = 2'F-ANA at 5 6 7 10 11 12 13 14; result = 45.5 a.u.
Modification = 2'F-ANA at 3 4 6 7 8 14 15; result = 369 a.u.
Modification = 2'F-ANA at 1 2 5 6 8 9 11 12 13 14; result = 51.8 a.u.
Modification = 2'F-ANA at 1 3 5 6 8 9 11 13 14; result = 48.3 a.u.
Modification = 2'F-ANA at 1 2 4 5 8 9 10 12 14 15; result = 46.4 a.u.

Sample 2
Target: Runt-related transcription factor 3, Runt domain (RUNX3, Homo sapiens, UniProt Q13761, residues 53-186)
Chain of UniProt Q13761 (53-186, looked up): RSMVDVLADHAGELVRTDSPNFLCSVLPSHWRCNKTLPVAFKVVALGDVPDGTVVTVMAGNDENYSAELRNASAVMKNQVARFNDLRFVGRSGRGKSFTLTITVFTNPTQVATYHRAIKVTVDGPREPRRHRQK
Method: protein-binding microarray
Form: hairpin DNA
Medium: in vitro
Concentration: not given
Notes: whole hairpin DNA, median over replicate spots
Reference: not given
Direction: higher = stronger binding
Quantity: median fluorescence
Oligonucleotide = GAGGCCTGTAGCGGTTGGCCTCCTGGCCAACCGCTACAGGCCTCACACTC; result = 5420 a.u.
Oligonucleotide = GAGGCCTGCGGTGGTTGGCCTCCTGGCCAACCACCGCAGGCCTCACACTC; result = 5810 a.u.
Oligonucleotide = GAGGCCTCTTGTGGTTGGCCTCCTGGCCAACCACAAGAGGCCTCACACTC; result = 5250 a.u.
Oligonucleotide = GAGGCCCAACCGCGACAGCCTCCTGGCTGTCGCGGTTGGGCCTCACACTC (5mC at 13); result = 6180 a.u.
Oligonucleotide = GAGGCCCACGCGCAACAGCCTCCTGGCTGTTGCGCGTGGGCCTCACACTC (5mC at 9); result = 5340 a.u.
Oligonucleotide = GAGGCCTAACCGCAACAGCCTCCTGGCTGTTGCGGTTAGGCCTCACACTC; result = 13300 a.u.
Oligonucleotide = GAGGCCTGTCGCGGGTGGCCTCCTGGCCACCCGCGACAGGCCTCACACTC; result = 6050 a.u.
Oligonucleotide = GAGGCCTGTTGTGGCGGGCCTCCTGGCCCGCCACAACAGGCCTCACACTC (5mC at 15); result = 5240 a.u.

Mixed results
HNRNPD: HNRNPD (Homo sapiens, UniProt Q14103)
Substance = P4HB (Homo sapiens, UniProt P07237); tested on = PSPC1 (Homo sapiens, UniProt Q8WXF1); assay = cross-linking MS; test system = cell fractions; setting = added: DSSO; quantity = cross-linked residues; result = K71 to K519
Substance = Cc1cc(-c2cc(-c3ccc(F)cc3)nc3c(C)noc23)ccn1; tested on = ADRB1 (Homo sapiens, UniProt P08588); assay = antagonist; quantity = IC50; result = ≥ 100 µM
Substance = HNRNPU (Homo sapiens, UniProt Q00839); tested on = HNRNPD; assay = cross-linking MS; setting = hits only; quantity = interaction screen; result = cross-linked
Substance = PGRMC1 (Homo sapiens, UniProt O00264); tested on = BCAP31 (Homo sapiens, UniProt P51572); assay = cross-linking MS; test system = cell fractions; setting = added: DMTMM; quantity = cross-linked residues; result = D86 to K148
Substance = HNRNPC (Homo sapiens, UniProt P07910); tested on = HNRNPD; assay = cross-linking MS; setting = hits only; quantity = interaction screen; result = cross-linked
